# Experimental data collected from several papers.
# Compare with care: the assays were run in different laboratories.
# Organism: Pseudomonas aeruginosa
SMILES,assay,system,conditions,scale,quantity,result
COc1ccccc1N1CCN(Cn2nc(C34CC5CC(CC(C5)C3)C4)n(-c3ccccc3)c2=S)CC1,,IFO 3448,"200 µg/disc, 24 h, 37 °C",,inhibition zone diameter,12 mm
CCOC(=O)c1cnc(N/N=C/c2c(-c3ccc(C#N)cc3)nc3ncccn23)s1,"microbial growth, well diffusion",ATCC27853,100 µg/mL,,inhibition zone,15 mm
O=C1CC(c2ccc(O)cc2)Oc2cc(O)cc([O][Ga+][O]c3cc(O)cc4c3C(=O)CC(c3ccc(O)cc3)O4)c21 (stereo not shown),pyocyanin secretion,,"0.08 µM, 20 h",,inhibition,91%
CC(=O)N[C@H](CCCCN)C(=O)N[C@H](CC(C)C)C(=O)N[C@H](CCCCN)C(=O)N[C@H](CO)C(=O)N[C@H](CC(C)C)C(=O)N[C@H](CC(C)C)C(=O)N[C@H](CCCCN)C(=O)N[C@@H](C(=O)N[C@H](CC(C)C)C(=O)N[C@H](CO)C(=O)N[C@H](CCCCN)C(=O)N[C@H](C)C(=O)N[C@H](CCCCN)C(=O)N[C@H](CCCCN)C(=O)N[C@H](CCCCN)C(=O)N[C@H](CC(C)C)C(=O)N[C@H](CC(C)C)C(=O)N[C@H](CCCCN)C(=O)N[C@@H](C(=O)N[C@H](C)C(=O)N[C@H](CC(C)C)C(=O)N[C@H](CCCCN)C(=O)N[C@H](C)C(=O)N[C@H](CC(C)C)C(=O)N[C@H](CO)C(=O)N[C@H](CCCCN)C(N)=O)[C@H](C)O)[C@H](C)O,,six isolates,"24 h, 37 °C",,MIC geometric mean,1 µM
O=C(CCc1ccc(Br)cc1)N[C@H]1CCOC1=O,elastin-Congo red,PAO1 wild type,100 µM,,elastase inhibition,< 25%
Cc1cc(O)cc2c1C(=O)c1c(cc3oc(=O)cc(-c4ccc(Cl)cc4)c3c1O)C2=O,,MTCC 2453,100 µg/disc,,zone of inhibition,8 mm
CC[C@@H](C)[C@@H](NC(=O)[C@@H](C)NC(=O)[C@@H](CCCCN)NC(=O)[C@@H](CC(C)C)NC(=O)[C@@H](C)NC(=O)[C@H](NC(=O)[C@@H](CCCCN)NC(=O)[C@@H](CC(C)C)NC(=O)[C@H](NC(=O)[C@@H](CCCCN)NC(=O)[C@@H](CCCCN)NC(=O)[C@@H](CCCCN)NC(=O)[C@@H](C)NC(=O)[C@@H](CCCCN)NC(=O)[C@@H](CO)NC(=O)[C@@H](Cc1ccccc1)NC(=O)[C@H](NC(=O)[C@@H](CCCCN)NC(=O)[C@@H](CC(C)C)NC(=O)[C@@H](Cc1ccccc1)NC(=O)[C@@H](CO)NC(=O)[C@@H](CCCCN)NC(=O)[C@@H](Cc1c[nH]c2ccccc12)NC(=O)[C@@H](CCCCN)NC(C)=O)[C@H](C)O)C(C)C)[C@H](C)O)C(=O)N[C@H](CO)C(=O)N[C@H](CCCCN)C(N)=O,,six isolates,,,MIC geometric mean,1.6 µM
COc1ccc(-c2ccn(CC[C@](C)(C(=O)NO)S(C)(=O)=O)c(=O)c2)c(F)c1,,"PA-1950, neutropenic mice, thigh infection","dose not given, 24 h",,free AUC/MIC for 1-log kill,7.25
Cc1cccc2c3c(ccc12)C1=C(C(=O)C3=O)[C@@H](C)CO1,LDH release,"J774.A1, PAO1",,reference: mock-treated infected cells,EC50,25 µM
CCCCCCCCCCCCCC(=O)N[C@@H](Cc1c[nH]c2ccccc12)C(=O)N[C@@H](CCCCN)C(=O)N[C@@H](CCCCN)C(=O)N[C@@H](CCCCN)C(=O)N[C@@H](CCCCN)C(N)=O,,ATCC 27853,,,MBC,128 µg/mL
CC(C)C[C@@H](NC(=O)[C@@H](CCCCN)NC(=O)[C@@H](CCCCNC(=O)[C@@H](CC(C)C)NC(=O)[C@@H](CCCCN)NC(=O)[C@@H](CCCCNC(=O)[C@@H](CC(C)C)NC(=O)[C@@H](CCCCN)NC(=O)[C@@H](CCCCNC(=O)[C@@H](CC(C)C)NC(=O)[C@H](N)CCCCN)NC(=O)[C@@H](CC(C)C)NC(=O)[C@H](N)CCCCN)NC(=O)[C@@H](CC(C)C)NC(=O)[C@@H](CCCCN)NC(=O)[C@@H](CCCCNC(=O)[C@@H](CC(C)C)NC(=O)[C@H](N)CCCCN)NC(=O)[C@@H](CC(C)C)NC(=O)[C@H](N)CCCCN)NC(=O)[C@@H](CC(C)C)NC(=O)[C@@H](CCCCN)NC(=O)[C@@H](CCCCNC(=O)[C@@H](CC(C)C)NC(=O)[C@@H](CCCCN)NC(=O)[C@@H](CCCCNC(=O)[C@@H](CC(C)C)NC(=O)[C@H](N)CCCCN)NC(=O)[C@@H](CC(C)C)NC(=O)[C@H](N)CCCCN)NC(=O)[C@@H](CC(C)C)NC(=O)[C@@H](CCCCN)NC(=O)[C@@H](CCCCNC(=O)[C@@H](CC(C)C)NC(=O)[C@H](N)CCCCN)NC(=O)[C@@H](CC(C)C)NC(=O)[C@H](N)CCCCN)C(N)=O,biofilm formation,PAO1,"24 h, 37 °C",,MBIC,16 µg/mL
O=C(NCCNCCO)c1cn(Cc2ccccc2)c2c(Cl)c(OCc3ccc(C(F)(F)F)cc3)c(Cl)cc2c1=O,,ATCC 27853,,≥80% growth inhibition,MIC,> 32 µg/mL
CC(C)C[C@H](NC(=O)[C@H](CC(N)=O)NC(=O)[C@H](CCCNC(=N)N)NC(=O)[C@@H](CC(C)C)NC(=O)[C@H](Cc1ccccc1)NC(=O)[C@H](CC(=O)O)NC(=O)[C@H](CCCCN)NC(=O)[C@@H](CC(C)C)NC(=O)[C@H](CCCNC(=N)N)NC(=O)[C@H](CCC(N)=O)NC(=O)[C@@H](NC(=O)[C@@H](CC(C)C)NC(=O)[C@H](CCCNC(=N)N)NC(=O)[C@H](CCCCN)NC(=O)[C@H](Cc1ccccc1)NC(=O)CN)C(C)C)C(=O)N[C@H](C(N)=O)C(C)C,broth microdilution,PAO1,,,MIC,100 µM
CC(=O)N[C@H](CCCCN)C(=O)N[C@H](CC(C)C)C(=O)N[C@H](CCCCN)C(=O)N[C@H](CO)C(=O)N[C@H](CC(C)C)C(=O)N[C@H](CC(C)C)C(=O)N[C@H](CCCCN)C(=O)N[C@@H](C(=O)N[C@H](CC(C)C)C(=O)N[C@H](CO)C(=O)N[C@H](CCCCN)C(=O)N[C@H](C)C(=O)N[C@H](CCCCN)C(=O)N[C@H](CCCCN)C(=O)N[C@H](CCCCN)C(=O)N[C@H](CCCCN)C(=O)N[C@H](CC(C)C)C(=O)N[C@H](CCCCN)C(=O)N[C@@H](C(=O)N[C@H](CC(C)C)C(=O)N[C@H](CC(C)C)C(=O)N[C@H](CCCCN)C(=O)N[C@H](C)C(=O)N[C@H](CC(C)C)C(=O)N[C@H](CO)C(=O)N[C@H](CCCCN)C(N)=O)[C@H](C)O)[C@H](C)O,,six isolates,"24 h, 37 °C",,MIC geometric mean,1.5 µM
Cc1cc(=O)oc2cc3c(c(C)c12)C(=O)c1c(O)cccc1C3=O,,MTCC 2453,100 µg/disc,,zone of inhibition,< 8 mm
CCN(CC)CCSc1nnc(C23CC4CC(CC(C4)C2)C3)n1C,,IFO 3448,"200 µg/disc, 24 h, 37 °C",,inhibition zone diameter,< 10 mm
CCCCCCCCCCCCCCCCCC(=O)N[C@@H](CCCCN)C(=O)N[C@@H](CCCCN)C(=O)N[C@@H](CCCNC(=N)N)C(=O)N[C@@H](CCCCN)C(=O)N[C@@H](CCCCN)C(N)=O,,ATCC 27853,,,MBC,128 µg/mL
CC[C@@H](C)[C@@H](NC(=O)[C@@H](CCCNC(=N)N)NC(=O)[C@@H](CCCNC(=N)N)NC(=O)[C@@H](Cc1c[nH]c2ccccc12)NC(=O)[C@@H](CCC(N)=O)NC(=O)[C@H](N)C(C)C)C(=O)N[C@H](CCCNC(=N)N)C(=O)N[C@@H](C(=O)N[C@H](Cc1c[nH]c2ccccc12)C(=O)N[C@@H](C(=O)N[C@@H](C(=O)N[C@H](CCCNC(=N)N)C(N)=O)[C@H](C)CC)C(C)C)C(C)C,,,with: serine hydroxamate 500 µM,,concentration abolishing (p)ppGpp accumulation,1 µg/mL
CC[C@H](C)[C@H](NC(=O)[C@H](Cc1c[nH]cn1)NC(=O)[C@H](CCCCNC(=O)[C@@H](NC(=O)[C@H](CCCCN)NC(=O)CSC[C@H](NC(=O)[C@H](Cc1ccccc1)NC(=O)[C@H](CCCCNC(=O)[C@H](CC(C)C)NC(=O)[C@@H]1CCCN1C(=O)[C@H](CCCCN)NC(=O)CCS[C@@H]1O[C@H](CO)[C@H](O)[C@H](O)[C@H]1O)NC(=O)[C@H](CC(C)C)NC(=O)[C@@H]1CCCN1C(=O)[C@H](CCCCN)NC(=O)CCS[C@@H]1O[C@H](CO)[C@H](O)[C@H](O)[C@H]1O)C(N)=O)[C@@H](C)CC)NC(=O)[C@@H](NC(=O)[C@H](CCCCN)NC(=O)CSC[C@H](NC(=O)[C@H](Cc1ccccc1)NC(=O)[C@H](CCCCNC(=O)[C@H](CC(C)C)NC(=O)[C@@H]1CCCN1C(=O)[C@H](CCCCN)NC(=O)CCS[C@@H]1O[C@H](CO)[C@H](O)[C@H](O)[C@H]1O)NC(=O)[C@H](CC(C)C)NC(=O)[C@@H]1CCCN1C(=O)[C@H](CCCCN)NC(=O)CCS[C@@H]1O[C@H](CO)[C@H](O)[C@H](O)[C@H]1O)C(N)=O)[C@@H](C)CC)C(N)=O,,PAO1,"50 µM, 24 h",,biofilm dispersal,increased
COc1cc(NC(=O)CSc2nc3ccccc3c(=O)n2-c2ccc(S(N)(=O)=O)cc2)cc(OC)c1,"microbial growth, well diffusion",ATCC27853,"500 µg/mL, 24 h",,inhibition zone,20 mm
CC(=O)N[C@@H](Cc1c[nH]c2ccccc12)C(=O)N[C@@H](Cc1c[nH]c2ccccc12)C(=O)N[C@@H](Cc1c[nH]c2ccccc12)C(=O)N[C@@H](Cc1c[nH]c2ccccc12)C(=O)NCCCC[C@@H]1NC(=O)[C@H](CCCNC(=N)N)NC(=O)[C@H](CCCNC(=N)N)NC(=O)[C@H](CCCNC(=N)N)NC(=O)[C@H](CCCNC(=N)N)NC(=O)[C@H](CCCNC(=N)N)NC1=O,broth microdilution,PAO1,37 °C,,MIC,> 212 µg/mL
Cc1cc([N+](=O)[O-])ccc1NC(=O)CSc1nc2ccccc2c(=O)n1-c1ccc(S(N)(=O)=O)cc1,"microbial growth, well diffusion",ATCC27853,"500 µg/mL, 24 h",,inhibition zone,25 mm
S=c1n(CN2CCN(c3ccccn3)CC2)nc(C23CC4CC(CC(C4)C2)C3)n1-c1ccccc1,,IFO 3448,"200 µg/disc, 24 h, 37 °C",,inhibition zone diameter,21 mm
CC(=O)[O-].O.O.[O-]c1ccc(Br)cc1C=NCCN1CCOCC1.[Zn+2],,,20 µL of 100 µM per disc,,inhibition zone diameter,17 mm
CCCCCCCCCc1nc2cc(Cl)ccc2c(=O)n1CCCN,bactericidal,"PAO1, LB","50 µM, 3 h",,viable count,increased

# A few entries again:
SMILES,assay,system,conditions,scale,quantity,result
COc1ccc(-c2ccn(CC[C@](C)(C(=O)NO)S(C)(=O)=O)c(=O)c2)c(F)c1,,"PA-1950, neutropenic mice, thigh infection","dose not given, 24 h",,free AUC/MIC for 1-log kill,7.25
Cc1cccc2c3c(ccc12)C1=C(C(=O)C3=O)[C@@H](C)CO1,LDH release,"J774.A1, PAO1",,reference: mock-treated infected cells,EC50,25 µM
CCCCCCCCCCCCCC(=O)N[C@@H](Cc1c[nH]c2ccccc12)C(=O)N[C@@H](CCCCN)C(=O)N[C@@H](CCCCN)C(=O)N[C@@H](CCCCN)C(=O)N[C@@H](CCCCN)C(N)=O,,ATCC 27853,,,MBC,128 µg/mL
